{"data": "Assay results from different studies", "cell line": "HepG2", "note": "Compare with care: the assays were run in different laboratories. ± gives the spread as reported."}
{"Compound": "C=C1CC(OC(=O)C(C)(O)CCl)C2C(=C)C(=O)OC2C2C1CC(O)C2(O)CCl (stereo not drawn)", "test": "annexin V-FITC/PI", "conditions": "concentration not given, 48 h", "measurement": "apoptotic cells", "result": "79.7%"}
{"Compound": "CC(=NN=c1sc(C(=O)c2ccccc2)nn1-c1ccccc1)c1ccc(S(=O)(=O)N2CCC(C)CC2)cc1", "test": "flow cytometry", "conditions": "3.31 µM, 72 h", "measurement": "cells in %G0-G1", "result": "26.9%"}
{"Compound": "COC(=O)C1C(C=NO)=Cc2cc3c(cc2C1c1cc(OC)c(OC)c(OC)c1)OCO3 (stereo not drawn)", "scale": "reference: CC50 HepG2 over amastigote EC50", "measurement": "selectivity index", "result": "> 1.7"}
{"Compound": "O=C1/C(=C/c2ccc3c(c2)OCCO3)SC(=S)N1[C@@H]1O[C@H](CO)[C@@H](O)[C@H](O)[C@H]1O", "test": "flow cytometry", "conditions": "IC50, 48 h", "measurement": "G2/M phase cells", "result": "34.5%"}
{"Compound": "Cc1ccc(NCC(=O)Nc2cnccn2)cc1S(=O)(=O)N1CCOCC1", "test": "cell growth or viability", "measurement": "EC50", "result": "4.98 µM"}
{"Compound": "Cc1ccc(Nc2ncc3c(n2)N(C2CCCCC2)C(=O)N(c2cc(NC(=O)c4cccc(C(F)(F)F)c4)ccc2C)C3)cn1", "test": "cell growth or viability, ATP luminescence", "conditions": "72 h", "measurement": "GI50", "result": "1.58 µM"}
{"Compound": "Cc1cc2nc(-c3cc4ccccc4nc3Cl)[nH]c2cc1C", "test": "flow cytometry", "conditions": "10 µM, 48 h", "measurement": "cells in G2 phase", "result": "53.3%"}
{"Compound": "CC(C)C1NC(=O)C(Cc2ccccc2)NC(=O)C(CCCCCC(=O)C2CO2)NC(=O)C2CCCCN2C1=O (stereo not drawn)", "test": "cytotoxicity, MTS", "conditions": "48 h", "measurement": "EC50", "result": "> 25 µM"}
{"Compound": "CN(C(=NN=C(c1ccccc1)c1ccccn1)[S][Ga]([Cl])[Cl])C1CCCCC1", "test": "Annexin V/PI flow cytometry", "conditions": "5 µM, 24 h, early plus late apoptosis", "scale": "reference: control", "measurement": "apoptotic cells", "result": "40.7%"}
{"Compound": "Cc1ccc(NCC(=O)Nc2ccc(F)cc2)cc1S(=O)(=O)N1CCOCC1", "test": "cell growth or viability", "measurement": "EC50", "result": "> 25 µM"}
{"Compound": "Cc1ccc(Nc2ncc3c(n2)N(C)C(=O)N(c2cc(NC(=O)c4ccc(CN5CCC(N(C)C)C5)c(C(F)(F)F)c4)ccc2C)C3)cn1 (stereo not drawn)", "test": "cell growth or viability, ATP luminescence", "conditions": "72 h", "measurement": "GI50", "result": "0.458 µM"}
{"Compound": "O=C(/C=C(O)/C=C/c1cccs1)/C=C/c1cccs1", "test": "DCFH-DA, SRB-normalized", "conditions": "1 µM", "scale": "reference: untreated cells", "measurement": "intracellular ROS", "result": "108 ± 9.4%"}
{"Compound": "Cc1c(C(=O)NNC(=S)Nc2ccc(Cl)cc2)nnn1Cc1nc2ccccc2[nH]1", "test": "annexin V/PI", "conditions": "concentration not given, 24 h", "measurement": "early apoptotic cells", "result": "12.2%"}
{"Compound": "OC(CN1CCC2(CC1)CC(O)c1ccc3ccccc3c1O2)c1ccc(F)c(F)c1 (stereo not drawn)", "test": "cytotoxicity, MTS", "conditions": "48 h", "measurement": "EC50", "result": "19 µM"}
{"Compound": "COc1cc(/C=C/C(=O)OCCCC[P+](c2ccccc2)(c2ccccc2)c2ccccc2)ccc1O", "test": "SRB", "conditions": "48 h", "scale": "reference: IC50 L02 over IC50 HepG2", "measurement": "therapeutic index", "result": 7.82}
{"Compound": "CC(=O)O[C@H]1CC[C@]2(C)[C@H]3C(=O)C=C4[C@@H]5C[C@@](C)(C(=O)OCc6ccccc6)CC[C@]5(C)CC[C@@]4(C)[C@]3(C)CC[C@H]2C1(C)C", "test": "annexin V/7-AAD flow cytometry", "conditions": "8 µM, 48 h", "measurement": "apoptotic cells", "result": "45.8%"}
{"Compound": "O=C(Nc1cc2nc(-c3cccc(C(F)(F)F)c3)cn2cn1)N1CC[C@H](F)C1", "test": "cell growth or viability", "conditions": "48 h", "measurement": "EC50", "result": "> 50 µM"}
{"Compound": "O=C(/C=C/c1ccc(O)c(O)c1)OCCCC[P+](c1ccccc1)(c1ccccc1)c1ccccc1", "test": "annexin V-FITC/PI flow cytometry", "conditions": "20 µM, 24 h", "measurement": "apoptotic cells", "result": "63.9%"}
{"Compound": "Cc1ccc(NCC(=O)Nc2ccc(F)c(Cl)c2)cc1S(=O)(=O)N(C)C", "test": "cell growth or viability", "measurement": "EC50", "result": "> 25 µM"}
{"Compound": "CSC(=S)N/N=C(\\C)c1ccc(S(=O)(=O)N2CCC(C)CC2)cc1", "test": "flow cytometry", "conditions": "3.31 µM, 72 h", "measurement": "cells in %G0-G1", "result": "32.6%"}
{"Compound": "Cc1ccc2nc(-c3ccccc3)c(CN3CCCCC3)n2c1", "test": "cell growth or viability", "conditions": "48 h", "measurement": "EC50", "result": "> 50 µM"}
{"Compound": "Cc1ccc(Nc2ncc3c(n2)N(C)C(=O)N(c2cc(NC(=O)c4cc(N5CCC(O)CC5)cc(C(F)(F)F)c4)ccc2C)C3)cn1", "test": "cell growth or viability, ATP luminescence", "conditions": "72 h", "measurement": "GI50", "result": "0.743 µM"}
{"Compound": "Cc1ccc(NCC(=O)Nc2ccccc2)cc1S(=O)(=O)N1CCOCC1", "test": "cell growth or viability", "measurement": "EC50", "result": "> 25 µM"}
{"Compound": "CCOc1cccc2c1[O][Pt-2]1([Cl])[N+](=C2)c2ccccc2[NH+]1c1ccccc1 (stereo not drawn)", "test": "flow cytometry PI", "conditions": "concentration not given, 24 h", "measurement": "sub-G1 cells", "result": "60 to 65%"}
{"Compound": "Cc1ccc(NCC(=O)Nc2nccs2)cc1S(=O)(=O)N1CCOCC1", "test": "cell growth or viability", "measurement": "EC50", "result": "> 25 µM"}
{"Compound": "Cc1ccc2nc(-c3ccc(F)c(F)c3)c(CN3CCN(CCc4cccnc4)CC3)n2c1", "test": "cell growth or viability", "conditions": "48 h", "measurement": "EC50", "result": "40.6 µM"}
{"Compound": "CC(=O)O[C@@H]1CC[C@@]2(C)C(CC[C@]3(C)C2C(=O)C=C2C4[C@@H](C)[C@H](C)CC[C@]4(C)CC[C@]23C)[C@@]1(C)C(=O)OCC(=O)Oc1cc(C)ccc1C(C)C (stereo partly drawn)", "conditions": "10 µM, acetaminophen-induced injury, together with: 10 mM acetaminophen", "measurement": "MDA level", "result": "3.9 nmol/mg"}
{"Compound": "Cc1ccc2nc(-c3ccc(Cl)cc3)c(CN3CCN(c4cccc(C(F)(F)F)c4)CC3)n2c1", "test": "cell growth or viability", "conditions": "48 h", "measurement": "EC50", "result": "> 50 µM"}
{"Compound": "[NH2][Pt]1([NH2])([Cl])([O]C(=O)C(Cl)Cl)[O]C(=O)C2(CC(=O)C2)C(=O)[O]1", "test": "annexin V/PI flow cytometry", "conditions": "50 µM, 24 h", "measurement": "apoptotic cells", "result": "28.8%"}
{"Compound": "N[C@@H](Cc1c[nH]cn1)C(=O)NCCC(=O)O", "test": "LDH", "conditions": "10 µg/mL, 6 h, 1% FBS", "measurement": "viability", "result": "73.4%"}
{"Compound": "CCN(CC)C(=O)c1ccc(-c2cc(NCCCN3CCCCC3)c3ccccc3n2)cc1", "conditions": "10 µM, overnight, together with: 10 nM insulin for 5 min", "measurement": "insulin receptor phosphorylation", "result": "increased"}
{"Compound": "CCC[C@H]1CC[C@H](c2ccc(NC(=S)NC[C@@H]3[C@@H](O)[C@@H](O)[C@H]4[C@H](O)CCCN43)cc2)CC1", "test": "Transwell", "conditions": "concentration not given", "measurement": "cell migration", "result": "decreased"}
{"Compound": "COc1ccc2c(=O)c3cc(OS(=O)(=O)C(F)(F)F)ccc3[nH]c2c1", "test": "cell growth or viability, resazurin", "measurement": "CC50", "result": "> 200 µM"}
{"Compound": "CSC(=NN=C(C)c1ccc(S(=O)(=O)N2CCC(C)CC2)cc1)N(C)C", "test": "flow cytometry", "conditions": "3.31 µM (IC50), 72 h", "measurement": "cells in pre-G1 phase", "result": "22%"}
{"Compound": "CC(=O)N[C@H](C(=O)N[C@H](C(=O)N[C@@H](Cc1ccccc1)C(=O)N[C@H](C(=O)N[C@@H](CO)C(=O)N[C@@H](Cc1c[nH]c2ccccc12)C(=O)N[C@@H](CCC(=O)O)C(=O)N[C@@H](CCC(=O)O)C(=O)N[C@@H](Cc1ccc(O)cc1)C(=O)N[C@@H](CC(C)C)C(=O)N[C@@H](CC(=O)O)C(=O)N[C@@H](Cc1c[nH]c2ccccc12)C(=O)N[C@H](C(N)=O)C(C)C)[C@@H](C)O)C(C)C)[C@@H](C)O", "test": "BODIPY-LDL uptake", "conditions": "30 µM, together with: 15 µg/mL PCSK9", "scale": "reference: maximal without PCSK9", "measurement": "LDL uptake restored", "result": "~80%"}
{"Compound": "Cc1ccc(NCC(=O)Nc2ccon2)cc1S(=O)(=O)N1CCOCC1", "test": "cell growth or viability", "measurement": "EC50", "result": "> 25 µM"}
{"Compound": "CC(=O)O[C@@H]1CC[C@@]2(C)C(CC[C@]3(C)C2C(=O)C=C2C4[C@@H](C)[C@H](C)CC[C@]4(C)CC[C@]23C)[C@@]1(C)C(=O)N/N=C1/C(=O)Nc2ccccc21 (stereo partly drawn)", "conditions": "1 µM, acetaminophen-induced injury, together with: 10 mM acetaminophen", "measurement": "MDA level", "result": "9.6 nmol/mg"}
{"Compound": "NCCC(=O)N[C@@H](Cc1c[nH]cn1)C(=O)O", "test": "LDH", "conditions": "10 µg/mL, 6 h, 1% FBS", "measurement": "viability", "result": "73.2%"}
{"Compound": "Cc1ccc2nc(-c3ccc(F)c(F)c3)c(CN3CCC(c4ccccc4)CC3)n2c1", "test": "cell growth or viability", "conditions": "48 h", "measurement": "EC50", "result": "> 50 µM"}
{"Compound": "Cc1ccc(NCC(=O)Nc2ccc(F)c(Cl)c2)cc1S(=O)(=O)N1CC2CCC(C1)O2", "test": "cell growth or viability", "measurement": "EC50", "result": "> 25 µM"}
{"Compound": "N[C@@H](Cc1c[nH]cn1)C(=O)NCCC(=O)NCCC(=O)N[C@@H](Cc1c[nH]cn1)C(=O)O", "test": "MTT", "conditions": "10 µg/mL, 6 h", "measurement": "viability", "result": "16.9%"}
{"Compound": "C=C1C(=O)C23CCC4C(C)(C)CCCC4(C)C2C(O)CC1C3 (single isomer, unassigned)", "test": "western blot, measured: cleaved caspase-9 and caspase-3", "conditions": "concentration not given", "measurement": "protein level", "result": "increased"}
{"note": "For quick reference, copied from above:"}
{"Compound": "Cc1ccc(NCC(=O)Nc2ccc(F)c(Cl)c2)cc1S(=O)(=O)N1CC2CCC(C1)O2", "test": "cell growth or viability", "measurement": "EC50", "result": "> 25 µM"}
{"Compound": "N[C@@H](Cc1c[nH]cn1)C(=O)NCCC(=O)NCCC(=O)N[C@@H](Cc1c[nH]cn1)C(=O)O", "test": "MTT", "conditions": "10 µg/mL, 6 h", "measurement": "viability", "result": "16.9%"}
